Assay results collected from several papers.
Protocols differ between the studies behind these lines. ± marks the error that the study gave.
Medium: plasma

CC1(C)CC[C@]2(NC(=O)C(C)(F)F)CC[C@]3(C)[C@H](C(=O)C=C4[C@@]5(C)C=C(C#N)C(=O)C(C)(C)[C@@H]5CC[C@]43C)[C@@H]2C1 — Cmax (human; oral, dose not given, geometric least-squares mean, together with: efavirenz): 19.9 ng/mL
CC(CCC(=O)NCC(=O)O)C1CCC2C3CCC4CC(OC5OC(C(=O)O)C(O)C(O)C5O)CCC4(C)C3CC(O)C12C (centres unmarked) — Cmax (human; concentration not given, endogenous control diurnal): 303 ± 75 nM
O=C(O)[C@H]1O[C@@H](N(Cc2ccc(C(F)(F)F)nc2)c2ccc(Cc3c[nH]c4ncc(Cl)cc34)cn2)[C@H](O)[C@@H](O)[C@@H]1O — Cmax (human, male; oral, 400 mg of [14C]-pexidartinib single dose, as metabolite): 3400 ng/mL
CCOc1cc(CC(=O)N[C@@H](CC(C)C)c2ccccc2N2CCCCC2)ccc1C(=O)O — Cmax (human; oral, dose not given, geometric least-squares mean, alone): 20.6 ng/mL
C[C@H](CCC(=O)NCC(=O)O)[C@H]1CC[C@H]2[C@@H]3[C@H](O)C[C@@H]4C[C@H](OS(=O)(=O)O)CC[C@]4(C)[C@H]3CC[C@]12C — Cmax (human; concentration not given, endogenous baseline diurnal): 154 ± 24 nM
COc1cc2c(cc1O)CCN1C[C@@H](CC(C)C)[C@@H](O)C[C@H]21 — Cmax (measured: non-deuterated analyte; healthy human male; oral, 25 mg, geometric mean, [14C]-tetrabenazine dosed): 8.03 ng/mL
CC[C@H](C)[C@@H]1NC(=O)[C@H](Cc2ccc(O)cc2)NC(=O)CCCSC[C@@H](C(=O)N(CC(=O)N[C@@H](CC(C)C)C(=O)NCC(N)=O)Cc2ccc(F)cc2)NC(=O)[C@H](CC(N)=O)NC(=O)[C@H](CCC(N)=O)NC1=O — Cmax (healthy human; intranasal, 50 µg every 3 h, after last dose): 0.039 ng/mL
CCCCCCCOc1ccc(CC[C@](N)(CO)COP(=O)(O)O)cc1C(F)(F)F — Cmax (healthy male humans; oral, 0.75 mg amiselimod, day 1, mean): 1.76 ng/mL
C[C@]12C[C@H](c3ccc(S(C)(=O)=O)cc3)C3=C4CCC(=O)C=C4CC[C@H]3[C@@H]1CC[C@@]2(O)C(F)(F)C(F)(F)F — Cmax (human; oral, 5 mg multiple doses, day 28): 30 ng/mL
CN(C(=O)C(C)(C)c1cc(C(F)(F)F)cc(C(F)(F)F)c1)c1cnc(N2C[C@H]3COC(O)CN3C[C@H]2CO)cc1-c1ccc(F)cc1CO (some centres unmarked) — Cmax (human; oral, 120 mg, geometric mean): 91.3 ng/mL
CC(C)C[C@H](NC(=O)[C@H](CCCN)NC(=O)CNC(=O)[C@@H](NC(=O)[C@H](C)NC(=O)[C@@H]1CSCSC[C@H](NC(=O)CC[C@H](N)C(=O)O)C(=O)N[C@@H](CC(N)=O)C(=O)N[C@@H]([C@@H](C)O)C(=O)N[C@@H](C)C(=O)N[C@@H]([C@@H](C)O)C(=O)N1)[C@@H](C)O)C(=O)N[C@@H](C)C(=O)N[C@@H](CCC(=O)O)C(=O)N[C@@](C)(Cc1ccccc1)C(=O)N[C@@H](CC(C)C)C(=O)N[C@H](C(=O)N[C@@H](CCCNC(=N)N)C(=O)N[C@@H](CO)C(=O)N[C@@H](CO)C(=O)N[C@@H](CC(N)=O)C(=O)N(C)[C@@H](CC(N)=O)C(=O)N[C@@H](Cc1ccccc1)C(=O)NCC(=O)N1CCC[C@H]1C(=O)N[C@@H](CCCCNC(=O)CC[C@H](NC(=O)CC[C@H](NC(=O)CCCCCCCCCCCCCCCCCCC(=O)O)C(=O)O)C(=O)O)C(=O)N[C@@H](CC(C)C)C(=O)N1CCC[C@H]1C(=O)N1CCC[C@H]1C(=O)N[C@H](C(=O)N[C@@H](CCC(=O)O)C(=O)N[C@H](C(=O)NCC(=O)N[C@@H](CO)C(=O)N[C@@H](CC(N)=O)C(=O)N[C@H](C(=O)N[C@@H](Cc1ccc(O)cc1)C(N)=O)[C@@H](C)O)C(C)C)[C@@H](C)O)C(C)C — Cmax (healthy human; subcutaneous, 0.4 mg single dose, geometric LS mean): 37.6 ng/mL

Excerpt of the above:
CC[C@H](C)[C@@H]1NC(=O)[C@H](Cc2ccc(O)cc2)NC(=O)CCCSC[C@@H](C(=O)N(CC(=O)N[C@@H](CC(C)C)C(=O)NCC(N)=O)Cc2ccc(F)cc2)NC(=O)[C@H](CC(N)=O)NC(=O)[C@H](CCC(N)=O)NC1=O — Cmax (healthy human; intranasal, 50 µg every 3 h, after last dose): 0.039 ng/mL
